Measurements of several laboratories.
Protocols differ between the studies behind these lines. ± marks the error that the study gave.
HLA class I histocompatibility antigen, A alpha chain allele A*24:02: HLA class I histocompatibility antigen, A alpha chain, allele A*24:02 (Homo sapiens, UniProt P04439)
HLA class I histocompatibility antigen, A alpha chain allele A*02:01: HLA class I histocompatibility antigen, A alpha chain, allele A*02:01 (Homo sapiens, UniProt P04439)
ampC: Beta-lactamase (ampC, Escherichia coli K-12, UniProt P00811)
Chain of UniProt P00811 (whole entry, looked up): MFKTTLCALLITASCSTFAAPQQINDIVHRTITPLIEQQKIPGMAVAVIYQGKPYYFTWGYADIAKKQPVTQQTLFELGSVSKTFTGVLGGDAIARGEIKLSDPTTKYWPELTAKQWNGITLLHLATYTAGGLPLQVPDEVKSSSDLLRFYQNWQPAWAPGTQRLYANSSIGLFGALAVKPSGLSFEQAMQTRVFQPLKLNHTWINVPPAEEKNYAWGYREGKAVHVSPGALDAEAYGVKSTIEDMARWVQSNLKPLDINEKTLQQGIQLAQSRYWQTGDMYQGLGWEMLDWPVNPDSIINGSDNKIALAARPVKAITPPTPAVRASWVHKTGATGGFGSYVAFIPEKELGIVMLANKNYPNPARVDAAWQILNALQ
Chain of UniProt P03023 (whole entry, unmodified, looked up): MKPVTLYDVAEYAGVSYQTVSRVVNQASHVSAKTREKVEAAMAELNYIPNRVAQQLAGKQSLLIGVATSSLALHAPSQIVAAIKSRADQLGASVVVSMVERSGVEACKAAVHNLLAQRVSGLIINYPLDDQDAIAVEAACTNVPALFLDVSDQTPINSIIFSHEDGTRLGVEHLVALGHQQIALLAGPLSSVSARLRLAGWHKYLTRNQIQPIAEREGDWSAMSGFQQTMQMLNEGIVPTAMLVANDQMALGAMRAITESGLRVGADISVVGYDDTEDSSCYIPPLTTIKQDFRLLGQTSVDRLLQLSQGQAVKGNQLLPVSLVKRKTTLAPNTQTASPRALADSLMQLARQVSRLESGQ
Chain of UniProt P07947 (whole entry, looked up): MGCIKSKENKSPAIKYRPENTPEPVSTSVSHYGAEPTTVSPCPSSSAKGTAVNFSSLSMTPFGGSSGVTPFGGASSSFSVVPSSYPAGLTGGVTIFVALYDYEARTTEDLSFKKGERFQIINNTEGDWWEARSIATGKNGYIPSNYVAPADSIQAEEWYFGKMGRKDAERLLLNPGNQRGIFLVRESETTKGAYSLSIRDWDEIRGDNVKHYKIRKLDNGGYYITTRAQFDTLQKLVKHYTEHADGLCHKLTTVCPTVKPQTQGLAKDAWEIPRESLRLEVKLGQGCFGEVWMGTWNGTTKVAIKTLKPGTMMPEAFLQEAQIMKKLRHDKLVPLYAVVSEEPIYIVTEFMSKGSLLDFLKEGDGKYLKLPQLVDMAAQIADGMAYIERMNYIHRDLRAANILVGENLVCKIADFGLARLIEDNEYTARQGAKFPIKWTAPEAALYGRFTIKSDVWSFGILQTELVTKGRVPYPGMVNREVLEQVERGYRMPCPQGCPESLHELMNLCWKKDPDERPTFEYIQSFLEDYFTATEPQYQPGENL
Chain of UniProt P51451 (whole entry, looked up): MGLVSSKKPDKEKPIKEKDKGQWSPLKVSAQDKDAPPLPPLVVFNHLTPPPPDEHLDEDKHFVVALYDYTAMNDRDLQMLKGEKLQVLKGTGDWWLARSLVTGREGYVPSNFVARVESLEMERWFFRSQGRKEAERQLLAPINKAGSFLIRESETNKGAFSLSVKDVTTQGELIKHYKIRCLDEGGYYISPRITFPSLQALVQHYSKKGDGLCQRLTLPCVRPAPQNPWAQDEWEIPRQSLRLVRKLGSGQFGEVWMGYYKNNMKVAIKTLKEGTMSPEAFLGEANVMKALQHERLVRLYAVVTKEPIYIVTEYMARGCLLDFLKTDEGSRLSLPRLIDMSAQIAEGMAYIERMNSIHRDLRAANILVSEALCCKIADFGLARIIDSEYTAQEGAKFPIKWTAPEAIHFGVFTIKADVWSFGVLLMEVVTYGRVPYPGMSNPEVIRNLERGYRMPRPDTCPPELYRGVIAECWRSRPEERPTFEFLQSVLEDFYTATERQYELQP
Chain of UniProt Q09161 (whole entry, looked up): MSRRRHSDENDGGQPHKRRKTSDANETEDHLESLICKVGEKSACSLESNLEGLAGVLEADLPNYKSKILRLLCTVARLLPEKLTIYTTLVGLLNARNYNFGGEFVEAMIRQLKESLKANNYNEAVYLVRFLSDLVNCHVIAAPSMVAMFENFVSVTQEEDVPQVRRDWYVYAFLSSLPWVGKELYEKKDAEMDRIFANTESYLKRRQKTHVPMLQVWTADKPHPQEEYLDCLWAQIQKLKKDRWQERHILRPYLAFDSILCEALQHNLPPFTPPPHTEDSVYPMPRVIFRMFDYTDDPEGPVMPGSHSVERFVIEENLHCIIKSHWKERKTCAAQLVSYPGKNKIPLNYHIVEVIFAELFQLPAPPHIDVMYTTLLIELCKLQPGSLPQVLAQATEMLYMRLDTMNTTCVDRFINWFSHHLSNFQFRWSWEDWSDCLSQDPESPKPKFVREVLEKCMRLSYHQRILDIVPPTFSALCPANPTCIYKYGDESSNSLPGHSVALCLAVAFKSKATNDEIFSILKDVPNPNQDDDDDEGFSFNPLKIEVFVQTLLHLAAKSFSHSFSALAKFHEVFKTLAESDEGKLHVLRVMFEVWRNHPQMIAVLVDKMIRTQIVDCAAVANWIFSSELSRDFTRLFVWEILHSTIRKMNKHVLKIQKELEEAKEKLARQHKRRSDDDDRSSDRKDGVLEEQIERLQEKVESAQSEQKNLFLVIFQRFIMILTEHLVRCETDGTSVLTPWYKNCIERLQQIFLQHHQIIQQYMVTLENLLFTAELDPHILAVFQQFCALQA

| SMILES | target | observed | method | with | endpoint | value |
| --- | --- | --- | --- | --- | --- | --- |
| CC(C)C[C@H](NC(=O)[C@H](CCC(N)=O)NC(=O)[C@H](CCCNC(=N)N)NC(=O)[C@H](CO)NC(=O)[C@H](Cc1ccc(O)cc1)NC(=O)[C@H](CC(C)C)NC(=O)[C@@H](N)CCCNC(=N)N)C(=O)N[C@@H](Cc1c[nH]cn1)C(=O)N[C@@H](Cc1ccccc1)C(=O)O | HLA class I histocompatibility antigen, A alpha chain allele A*24:02 | binding |  |  | IC50 | 0.299 µM |
| CSCC[C@H](NC(=O)CNC(=O)[C@H](Cc1ccccc1)NC(=O)[C@H](CC(=O)O)NC(=O)CNC(=O)c1ccc2c(c1)C(=O)OC21c2ccc(N(C)C)cc2Oc2cc(N(C)C)ccc21)C(=O)N[C@@H](CO)C(=O)N[C@@H](CCCNC(=N)N)C(=O)N[C@@H](CC(=O)O)C(=O)N[C@H](C(=O)N[C@@H](Cc1ccc(OP(=O)(O)O)cc1)C(=O)N[C@@H](CO)C(=O)N[C@H](C(=O)N[C@@H](CC(=O)O)C(=O)N[C@@H](Cc1ccc(O)cc1)C(=O)N[C@@H](Cc1ccc(O)cc1)C(=O)N[C@@H](CCCNC(=N)N)C(=O)N[C@H](C(=O)N[C@@H](CC(=O)O)C(=O)O)C(C)C)[C@@H](C)O)C(C)C | Tyrosine-protein kinase Blk, SH2 domain (BLK, Homo sapiens, UniProt P51451) | binding |  |  | Kd | 0.264 µM |
| OC[C@H]1O[C@@H](OCCc2ccccc2)[C@H](O)[C@@H](O)[C@H]1O | lacI (Escherichia coli, UniProt P03023, D149A/N125A) | operator DNA release | nitrocellulose filter binding | O1 operator DNA | EC50 | > 1000 µM |
| C[C@H]1CN(c2n[nH]c3nc(N[C@H]4CC[C@H](NS(=O)(=O)CCC(F)(F)F)CC4)ncc23)CCO1 | Nuclear cap-binding protein subunit 1 (Homo sapiens, UniProt Q09161) |  | biochemical |  | IC50 | ≥ 20 µM |
| CC[C@H](C)[C@H](NC(=O)[C@H](CCCNC(=N)N)NC(=O)[C@H](CC(N)=O)NC(=O)[C@H](Cc1ccccc1)NC(=O)[C@@H](NC(=O)[C@@H](N)Cc1ccc(O)cc1)[C@@H](C)O)C(=O)N[C@@H](Cc1c[nH]cn1)C(=O)N[C@@H](CCC(=O)O)C(=O)N[C@@H](Cc1ccccc1)C(=O)O | HLA class I histocompatibility antigen, A alpha chain allele A*02:01 | binding |  |  | IC50 | 14.8 µM |
| COC(=O)C(CC1CC1)NS(=O)(=O)c1cccc(Cl)c1O (stereo not drawn) | ampC |  |  |  | Ki | 133 µM |
| COc1cc(Nc2ncc(F)c(Nc3ccc4c(n3)NC(=O)C(C)(C)O4)n2)cc(OC)c1OC | PP2A |  |  |  | IC50 | > 10 µM |
| CSCC[C@H](NC(=O)[C@@H](NC(=O)[C@@H](NC(=O)[C@H](CC(C)C)NC(=O)[C@H](CC(N)=O)NC(=O)[C@H](CC(N)=O)NC(=O)[C@@H](NC(=O)[C@H](C)NC(=O)[C@@H](N)CC(C)C)[C@@H](C)O)C(C)C)C(C)C)C(=O)O | HLA class I histocompatibility antigen, A alpha chain allele A*02:01 | peptide-MHC binding | radioligand competition binding |  | IC50 | > 70 µM |
| Cc1cccc(OCC(O)CNS(=O)(=O)c2cnn(C)c2C(=O)O)c1 (stereo not drawn) | ampC |  |  |  | Ki | 239 µM |
| CSCC[C@H](NC(=O)[C@@H](NC(=O)[C@H](CC(C)C)NC(=O)[C@@H](NC(=O)[C@H](CCCCN)NC(=O)[C@H](CC(N)=O)NC(=O)[C@H](Cc1ccc(O)cc1)NC(=O)[C@H](CCSC)NC(=O)[C@@H](N)CCCNC(=N)N)[C@@H](C)O)[C@@H](C)O)C(=O)O | HLA class I histocompatibility antigen, A alpha chain allele A*02:01 | binding |  |  | IC50 | 1.56 µM |
| C[C@H]1O[C@@H](Oc2ccccc2[N+](=O)[O-])[C@H](O)[C@@H](O)[C@H]1O | lacI (Escherichia coli, UniProt P03023, D149C/N125C) | operator DNA binding | nitrocellulose filter binding | O1 operator DNA | EC50 | 55 ± 1.8 µM |
| CSCC[C@H](NC(=O)[C@@H](N)CCCNC(=N)N)C(=O)N[C@@H](Cc1ccc(O)cc1)C(=O)N[C@@H](CC(=O)O)C(=O)N[C@@H](CCCNC(=N)N)C(=O)N[C@@H](Cc1c[nH]cn1)C(=O)N[C@@H](Cc1ccc(O)cc1)C(=O)N[C@@H](CC(C)C)C(=O)N[C@@H](Cc1ccccc1)C(=O)O | HLA class I histocompatibility antigen, A alpha chain allele A*02:01 | binding |  |  | IC50 | 0.265 µM |
| O=C(O)CCC(=O)C(=O)O | gltA (Klebsiella pasteurii, UniProt A0A9Q9S525, H227L) |  |  |  | Ki | 2220 ± 135 µM |
| O=S(=O)(NCc1ccnc(OC2CCOC2)c1)c1cccc(Cl)c1O (stereo not drawn) | ampC |  |  |  | Ki | 133 µM |
| CSCC[C@H](NC(=O)[C@H](CO)NC(=O)[C@H](CC(C)C)NC(=O)[C@@H](NC(=O)[C@H](Cc1c[nH]cn1)NC(=O)[C@H](CCCCN)NC(=O)[C@H](Cc1ccccc1)NC(=O)[C@H](CCC(N)=O)NC(=O)[C@@H](N)CCCCN)[C@@H](C)O)C(=O)O | HLA class I histocompatibility antigen, A alpha chain allele A*24:02 | binding |  |  | IC50 | 30.9 µM |
| CCOC(=O)C(CC1CCCCC1)NS(=O)(=O)c1cccc(Cl)c1O (stereo not drawn) | ampC |  |  |  | Ki | 95.9 µM |
| CSCC[C@H](NC(=O)[C@H](CO)NC(=O)[C@H](CC(C)C)NC(=O)[C@H](CO)NC(=O)[C@H](Cc1c[nH]cn1)NC(=O)CNC(=O)[C@H](Cc1ccc(O)cc1)NC(=O)[C@H](CC(C)C)NC(=O)[C@@H](N)CCCNC(=N)N)C(=O)O | HLA class I histocompatibility antigen, A alpha chain allele A*24:02 | binding |  |  | IC50 | 34.1 µM |
| CC[C@H](C)[C@H](NC(=O)c1ccc2c(c1)C(=O)OC21c2ccc(N(C)C)cc2Oc2cc(N(C)C)ccc21)C(=O)N[C@@H](CCC(=O)O)C(=O)N[C@@H](CO)C(=O)N[C@@H](CO)C(=O)N[C@@H](CC(N)=O)C(=O)N[C@@H](Cc1ccc(O)cc1)C(=O)N[C@@H](CCSC)C(=O)N[C@@H](C)C(=O)N1CCC[C@H]1C(=O)N[C@@H](Cc1ccc(OP(=O)(O)O)cc1)C(=O)N[C@@H](CC(=O)O)C(=O)N[C@@H](CC(N)=O)C(=O)N[C@@H](Cc1ccc(O)cc1)C(=O)N[C@H](C(=O)N1CCC[C@H]1C(=O)N[C@@H](CO)C(=O)N[C@@H](C)C(=O)N[C@@H](CC(=O)O)C(=O)O)C(C)C | Tyrosine-protein kinase Yes, SH2 domain (YES1, Homo sapiens, UniProt P07947) | binding |  |  | Kd | 1.85 µM |
